Published values pooled from the literature.
Organism: Pseudomonas aeruginosa

[H]/N=C(/N)N[C@H]1[C@H](O)[C@@H](O)[C@H](O[C@@H]2O[C@@H](C)[C@](O)(C=O)[C@H]2O[C@@H]2O[C@@H](CO)[C@H](O)[C@@H](O)[C@@H]2NC)[C@@H](N/C(N)=N\[H])[C@@H]1O  MIC (CIP 27853, Mueller Hinton broth; overnight, 37 °C): > 512 µg/mL
CC[C@H](C)CCCCC(=O)N[C@@H](CCN)C(=O)N[C@H](C(=O)N[C@@H](CCN)C(=O)N[C@H]1CCNC(=O)[C@H]([C@@H](C)O)NC(=O)[C@H](CCN)NC(=O)[C@H](CCN)NC(=O)[C@H](CC(C)C)NC(=O)[C@@H](CC(C)C)NC(=O)[C@H](CCN)NC1=O)[C@@H](C)O  MIC (broth microdilution; ATCC 17978, cation-adjusted Mueller-Hinton broth): 0.214 µM
CO/N=C(\C(=O)N[C@@H]1C(=O)N2C(C(=O)O)=C(COC(C)=O)CS[C@H]12)c1csc(N)n1  MIC (broth microdilution; clinical isolate, Mueller-Hinton broth; 24 h, 37 °C): > 400 µM
CNC(C)C1CCC(N)C(OC2C(N)CC(N)C(OC3OCC(C)(O)C(NC)C3O)C2O)O1 (stereo not drawn)  MIC (clinical isolate JMI 1045324): 2 µg/mL
CNC(C)C1CCC(N)C(OC2C(N)CC(N)C(OC3OCC(C)(O)C(NC)C3O)C2O)O1 (stereo not drawn)  MIC (broth microdilution, absorbance; clinical isolate P.A301, RPMI with 1640% FBS; 24 h, 37 °C): 32 µM
NC[C@H]1O[C@H](O[C@H]2[C@H](O)[C@@H](O[C@H]3O[C@H](CO)[C@@H](O)[C@H](N)[C@H]3O)[C@H](N)C[C@@H]2N)[C@H](O)[C@@H](O)[C@@H]1O  MIC (broth microdilution; CMCC 10104): 64.3 µM
CC1(C)S[C@@H]2[C@H](NC(=O)[C@H](N)c3ccccc3)C(=O)N2[C@H]1C(=O)O  MIC (CIP 27853, Mueller Hinton broth; overnight, 37 °C): 64 µg/mL
N=C(N)c1cccc(OCc2ccc(COc3cccc(C(=N)N)c3)cc2)c1  MIC (ATCC 27853; compound alone): > 200 µg/mL
COc1cc(C(=O)Nc2ccc(C(=O)N[C@@H](CC(N)=O)C(=O)Nc3ccc(C(=O)Nc4ccc(C(=O)Nc5ccc(C(=O)O)cc5)c(O)c4OC(C)C)cc3)cc2)ccc1C#N  MIC (PA14 ΔmexAB): 0.25 µg/mL
C[C@@H](O)[C@H]1C(=O)N2C(C(=O)O)=C(SCCN=CN)C[C@H]12  MIC (S13-35 PER-producing isolate): 0.5 µg/mL
C=C/C=C(\C)CC[C@H]1C[C@H](O)CC(=O)O1  MIC (broth microdilution; KCCM 11321; 16 h, 37 °C): 64 µg/mL
c1ccc(OCCn2c(CNCC34CC5CC(CC(C5)C3)C4)nc3ccccc32)cc1  MIC (ATCC 27853): > 128 µg/mL
C[C@@H](O)[C@H]1C(=O)N2C(C(=O)O)=C(S[C@@H]3CN[C@H](C(=O)N(C)C)C3)[C@H](C)[C@H]12  MIC (27853): < 2 µg/mL
COc1c(C(=O)Nc2ccc(C(=O)O)cc2)ccc2nc(-c3cc(NC(=O)C(CC(N)=O)NC(=O)c4ccc(NC(=O)c5ccc(C#N)cc5)cc4)cn3C)[nH]c12 (stereo not drawn)  MIC (PA14 ΔmexAB): > 64 µg/mL
O=C(Cc1ccccc1)N[C@@H]1C(=O)N2C(C(=O)O)=C(CSc3cccc4cccnc34)CS(=O)(=O)[C@H]12  MIC: > 128 µg/mL
CC1(C)S[C@@H]2[C@H](NC(=O)[C@H](N)c3ccccc3)C(=O)N2[C@H]1C(=O)O  MIC (ATCC BAA-2108, resistant; 18 h, 37 °C, LED light 10 min, 1.57 mW): > 128 µM
N=C(N)c1ccc(OCc2cc(COc3ccc(C(=N)N)cc3)cc(-c3ccccc3)c2)cc1  MIC (ATCC 27853; compound alone): 100 µg/mL
FC(F)(F)Oc1ccc(OCCn2c(CNCC34CC5CC(CC(C5)C3)C4)nc3ccccc32)cc1  MIC (ATCC 27853): > 128 µg/mL
CCN1CCN(C(=O)N[C@@H](C(=O)N[C@@H]2C(=O)N3[C@@H]2SC(C)(C)[C@@H]3C(=O)O)c2ccccc2)C(=O)C1=O  MIC (S13-35 PER-producing isolate): > 128 µg/mL
CN(C)c1ccc2nc3ccc(=[N+](C)C)cc-3sc2c1  MIC (ATCC 27853; 18 h, 37 °C, LED irradiation 10 min): > 128 µM
C[C@@H](O)[C@H]1C(=O)N2C(C(=O)O)=C(S[C@@H]3CN[C@H](C(=O)N(C)C)C3)[C@H](C)[C@H]12  MIC (broth microdilution, MH medium; KCCM 11328; 16 h, 37 °C, growth inhibition over 99%): 1 µM
NC[C@H]1O[C@H](O[C@H]2[C@H](O)[C@@H](O[C@H]3O[C@H](CO)[C@@H](O)[C@H](N)[C@H]3O)[C@H](N)C[C@@H]2N)[C@H](O)[C@@H](O)[C@@H]1O  MIC (broth microdilution; PA14, cation-adjusted Mueller-Hinton broth; 16 h, 37 °C): 64 µg/mL
CC(C)(O/N=C(\C(=O)N[C@@H]1C(=O)N2C(C(=O)[O-])=C(C[n+]3ccccc3)CS[C@H]12)c1csc(N)n1)C(=O)O  MIC (S13-35 PER-producing isolate): > 128 µg/mL
NC1CCCCc2c1[nH]c1ccc(Cl)c(Cl)c21 (stereo not drawn)  MIC (PAO1; added: efflux pump inhibitor 12.5 µg/mL): 32 µg/mL

Some of these lines once more:
FC(F)(F)Oc1ccc(OCCn2c(CNCC34CC5CC(CC(C5)C3)C4)nc3ccccc32)cc1  MIC (ATCC 27853): > 128 µg/mL
CCN1CCN(C(=O)N[C@@H](C(=O)N[C@@H]2C(=O)N3[C@@H]2SC(C)(C)[C@@H]3C(=O)O)c2ccccc2)C(=O)C1=O  MIC (S13-35 PER-producing isolate): > 128 µg/mL
CN(C)c1ccc2nc3ccc(=[N+](C)C)cc-3sc2c1  MIC (ATCC 27853; 18 h, 37 °C, LED irradiation 10 min): > 128 µM
C[C@@H](O)[C@H]1C(=O)N2C(C(=O)O)=C(S[C@@H]3CN[C@H](C(=O)N(C)C)C3)[C@H](C)[C@H]12  MIC (broth microdilution, MH medium; KCCM 11328; 16 h, 37 °C, growth inhibition over 99%): 1 µM
